Assay results gathered from unrelated publications.
Numbered parts are unrelated; each lists some results of a single study.

Sample 1 — technique: protein-binding microarray; form: double-stranded DNA, one strand shown; matrix: in vitro; tested at: 940 nM top; setting: 60-bp whole probe; together with: salmon DNA 0.4 mg/ml; reference: random background probes; direction: higher = stronger binding; constant ends, left off below: GCCTAGCAC … GTCTTGATTCGCTTGACGCTGCTG
Target: Interferon regulatory factor 5, full length, phosphomimetic (IRF5, Homo sapiens, UniProt Q13568-2, residues 1-514, S451D/S453D/S456D/S462D)
Sequence	fitted relative affinity
TTTGATATCAGTATCGATTAGTGCTAG	5.01 z-score
AGTAATGACCTTCTCAGGAGGTGCTAG	-0.191 z-score
TTAGGTATCCTTTTCCTTAAGTGCTAG	0.855 z-score
TTACCTCTCACGCATCTGAAAGTGCTA	1.1 z-score
GACGAGATCGGGTTTCGAGACGTGCTA	2.39 z-score
GGGCCAGCAGCCAGGTGGAGGTGCTAG	-0.578 z-score
ATTTAAGTTTCACTCTGCATGGTGCTA	8.01 z-score
TTAGATTTCAGTTCCAATTAGTGCTAG	1.2 z-score
TCAACTTTGAATTAGAAACTGTGCTAG	-0.177 z-score
TATGTTCCCTATTTAAGACCGTGCTAG	0.836 z-score
GACGGTTCCGGTTTCGGGATGTGCTAG	5.31 z-score
TTCATTTTCTGAATGTCCTCGTGCTAG	0.53 z-score
TTAGGACTGGGTTTCGGTGAGTGCTAG	5.13 z-score
TTAGGTTTCGGTCTCGATTAGTGCTAG	15.2 z-score
GATGGTCTCGGACTGGGGACGTGCTAG	1.6 z-score
TTAGGTTTCGGTATCGGTTTGTGCTAG	15.8 z-score
GACGATCTCAGGCTGGAGACGTGCTAG	-0.676 z-score
TTAGGTTTCGACTTTCGGATAGTGCTA	8.62 z-score
TTGGGACTGCTTCTCCTTTAGTGCTAG	-0.209 z-score
GACGGACTGTACTTTCGGGACGTGCTA	0.939 z-score
CTTGCTTTTTAGATCGTCCCGTGCTAG	0.611 z-score
TTCGGTCTCGGTATCGGTTAGTGCTAG	7.77 z-score
TTAGATATCCGACTGGATTAGTGCTAG	-0.322 z-score
GACGGTTTCGGGACTGGGGAAGTGCTA	6.9 z-score
TTAGAACCGAGACTGGATTAGTGCTAG	0.715 z-score

Sample 2 — technique: RNA Bind-n-Seq; form: RNA; matrix: in vitro; tested at: 200 nM; setting: whole 134-nt RNA, ends assumed; together with: 150 mM KCl; reference: input library; direction: higher = stronger binding
Target: Ras GTPase-activating protein-binding protein 1, full length (G3BP1, Homo sapiens, UniProt Q13283)
Sequence of UniProt Q13283 (whole entry, looked up): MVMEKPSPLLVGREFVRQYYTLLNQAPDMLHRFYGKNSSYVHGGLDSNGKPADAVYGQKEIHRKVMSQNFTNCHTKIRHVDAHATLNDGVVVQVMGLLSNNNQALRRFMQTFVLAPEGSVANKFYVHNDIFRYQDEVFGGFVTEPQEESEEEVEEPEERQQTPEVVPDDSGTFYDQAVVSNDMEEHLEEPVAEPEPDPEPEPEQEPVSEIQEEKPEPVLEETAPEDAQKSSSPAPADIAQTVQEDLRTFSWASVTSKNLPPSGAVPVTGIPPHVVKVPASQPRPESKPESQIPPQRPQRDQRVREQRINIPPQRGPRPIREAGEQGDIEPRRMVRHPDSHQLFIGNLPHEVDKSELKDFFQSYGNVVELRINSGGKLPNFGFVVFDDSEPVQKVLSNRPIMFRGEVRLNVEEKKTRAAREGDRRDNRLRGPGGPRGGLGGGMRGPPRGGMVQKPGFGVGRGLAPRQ
Sequence	log2 enrichment
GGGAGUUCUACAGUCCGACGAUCCUCAAGUCCUGUGCUACACAUCGUAUGUACCGAAUCGGGAAGGAAGGGGAAGGGAAAGUAUUAUGUUACGCCGUUCGGAUCUGCACUUCCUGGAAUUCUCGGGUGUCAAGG	1.18
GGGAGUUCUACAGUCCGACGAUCUGAAAAGAACUGCUCUCCAUGGAGAGAGUAACUCUGUCCUUAUUAUCGGACCCCGAGGAUCAGGAAAAACUAUGGUAAAAGCUGUUGAUUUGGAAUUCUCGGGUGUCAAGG	-1.43
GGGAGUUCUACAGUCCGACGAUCGCAGGAAGUAAAAACAAAUGGAAAUGCUUCGGAUAGUGGCAGGGGUGGGGGUUGCUAUGGAAAGGGUGGGAUGGGAGUGGGUAAAGAGUUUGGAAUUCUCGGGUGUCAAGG	1.01
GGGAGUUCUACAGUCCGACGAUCCCUCAAGUCCUGUGCUACACAUCGUAUGUACCGAAUCGGGCGGGCGGGCGGGAAAGUAUUAUGUUACGCCGUUCGGAUCUGCACUUCCAGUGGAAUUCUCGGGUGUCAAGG	1.58
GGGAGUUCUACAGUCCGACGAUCUCCUGUGCUACACAUCGUAUGUACCGAAUCGGGGUUUUUGGGUUUUUGGGGUUUUUGGGAAAGUAUUAUGUUACGCCGUUCGGAUCUGCAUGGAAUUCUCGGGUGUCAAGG	0.107
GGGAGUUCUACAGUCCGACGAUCCAAGUCCUGUGCUACACAUCGUAUGUACCGAAUCGGGUUUGGGUUUGGGGUUUGGGAAAGUAUUAUGUUACGCCGUUCGGAUCUGCACUUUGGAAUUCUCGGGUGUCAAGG	0.528
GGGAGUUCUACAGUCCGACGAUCGUCCUGUGCUACACAUCGUAUGUACCGAAUCGGGGCCCCGGGGCCCCGGGCCCCGGGGAAAGUAUUAUGUUACGCCGUUCGGAUCUGCACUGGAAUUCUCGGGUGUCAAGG	1.17
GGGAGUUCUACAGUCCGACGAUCGGGUCUGUUGCAAAUAAAUUCUAUGUUCACAAUGAUAUCUUCAGAUACCAAGAUGAGGUCUUUGGUGGGUUUGUCACUGAGCCUCAGGAGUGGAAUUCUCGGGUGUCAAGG	-1.55
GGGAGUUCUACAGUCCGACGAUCCACAGACAACACGCACCCACACAGACACAGAGGGAAGGGGUUGGGAUGGGGAAAAGGUGCACAGCAGGGCGGGGUAGGACCCCAGCCCCUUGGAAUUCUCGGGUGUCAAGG	1.85
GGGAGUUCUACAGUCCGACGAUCCCUCAAGUCCUGUGCUACACAUCGUAUGUACCGAAUCGGGAGGGAGGGGAGGAAAGUAUUAUGUUACGCCGUUCGGAUCUGCACUUCCAGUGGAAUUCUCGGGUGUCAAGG	1.12
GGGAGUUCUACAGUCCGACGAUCAGUCCUGUGCUACACAUCGUAUGUACCGAAUCGGGUUUUUUUGGGUGGGAAAAAGGGAAAGUAUUAUGUUACGCCGUUCGGAUCUGCACUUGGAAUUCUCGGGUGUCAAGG	-0.105
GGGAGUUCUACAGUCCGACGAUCUGGCCCUGGUGGCAUUCGGGGAGGAAGAGGUGGCCUCAUGGAUCGUGGUGGUCCCGGUGGAAUGUUCAGAGGUGGCCGUGGUGGAGACAGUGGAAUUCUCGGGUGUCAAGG	0.3
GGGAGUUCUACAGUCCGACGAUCCAAGUCCUGUGCUACACAUCGUAUGUACCGAAUCGGGUUUUUUUGGGAGGGAGGGAAAGUAUUAUGUUACGCCGUUCGGAUCUGCACUUCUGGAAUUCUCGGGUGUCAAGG	0.53
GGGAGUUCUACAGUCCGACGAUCUGGCCCUGGUGGCAUGCGGGGAGGAAGAGGUGGCCUCAUGGAUCGUGGUGGUCCCGGUGGAAUGUUCAGAGGUGGCCGUGGUGGAGACAGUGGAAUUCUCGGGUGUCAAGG	-0.0749

Sample 3 — technique: RNA Bind-n-Seq; form: RNA; matrix: in vitro; tested at: 365 nM; reference: no-protein control; direction: higher = stronger binding
Target: RNA binding protein fox-1 homolog 2, RRM domain, GST-SBP tag (RBFOX2, Homo sapiens, UniProt O43251-10, residues 100-194)
Setting: natural RNA segment, single round, ends assumed
Construct (chain): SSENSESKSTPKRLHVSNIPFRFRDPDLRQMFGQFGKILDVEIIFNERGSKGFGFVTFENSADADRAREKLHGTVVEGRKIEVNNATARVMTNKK
Sequence	RBNS enrichment (R)
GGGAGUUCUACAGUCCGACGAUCAGACCAGCUGCUGCGACACUAAUGCUAAGCCUAUGGGGAAGCACUGUUGACCUGCUCAGGUGCACAUCUGUGAUGCCGACAGACUUGGUUCAGUUUUUAUAGUUGUGUUGUGGAAUUCUCGGGUGCCAA	0.292
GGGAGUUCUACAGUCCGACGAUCAAGAUGAAUACAGCAUCCCGCAGAGGUAGGAUAUGAGGAGGCUAUACUGGAGCGUAGGGAUGAGAUAAAGGGAUGGAUCCGAGUCCUCCCGGGGCCUGCCAAGCUUUUCCUGGAAUUCUCGGGUGCCAA	0.705
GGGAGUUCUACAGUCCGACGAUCUCUUUGUAGCAGGAUGGUACACAGCCAUCAGCAGAAUGAGUUAAAACCAACAAUGAAUUCAAUAUACCAGGAAAUAGAUUGUUAGUAGGGAAUGGCAUUAAAGGAAAAAAUGGAAUUCUCGGGUGCCAA	0.815
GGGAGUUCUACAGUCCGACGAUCUUCAAAAGAAAACAUAAGAGAUUAUUGAGUUCUUGGGACUGGAUCCUUUAUUUCAUAAGUUCAGAUCAUCUUAAAUGAAAAUGCCAUGAUUAUCUGCAGUUAAGUAGAUGUGGAAUUCUCGGGUGCCAA	0.548
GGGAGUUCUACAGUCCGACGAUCUACGUGCUUAUCACAGGUCCUUGGCGUCAGGACACUAGGGAUGAACAUGGAGGUGAUAUGUUACACAGUAAACACCUGCCAACCCCUGUACUCCCCUUUGCUCCAUCAGUUGGAAUUCUCGGGUGCCAA	0.554
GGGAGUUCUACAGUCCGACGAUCGUUUAGAAAUUGCUCAAUAAGUCAUUUGGGGUUUGGCAUCCUGCCCAGCCACUUCCCAAACAUGAAGACCUCUCUGUUGCUUUAUGUUGUACAUGCCCCAUAGCCAUCCCUGGAAUUCUCGGGUGCCAA	1.14
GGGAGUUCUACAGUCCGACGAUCAGUGUUUGCUUCCCGUGGAGCCAAGCGCCCAAGACUCUCCGUAUCCUUCACCCUGACAGUUUAACUUCAGCGUUUCUCUGUGCAGUUGCGGUCACCAUGGGUGAGCACUGUGGAAUUCUCGGGUGCCAA	0.288
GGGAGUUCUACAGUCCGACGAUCGACGAGCCCAUGUUUCUGCAUGGAUUUCCCAUGGAAGUCCUGUCCUGCUACAGAGGGGAAGAAAGUGUACCCUCCAAUGUGAUAAAUCUUCUGAUGCCCCCAGACUCUUGUGGAAUUCUCGGGUGCCAA	0.375
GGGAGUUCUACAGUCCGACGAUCGCAACCACUGCCCAUUCUUCUAAUCCCUCACAAUACGUGAUUCAGACCCUGAGCCUGGUCCACAGUGACUGGGAAAAGGCAUUAACACAAAACAAAAGAGAUGGGGGGAGUGGAAUUCUCGGGUGCCAA	0.329
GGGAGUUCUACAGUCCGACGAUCGUCUGAAAGGUGAGGGUGGCCUGACCUGGGCCUCUCCCUGCCCCUCCAUAGGUGGGUUUGUAGGGUCUUGUGUUGCUUCUGGUCUCUCCAGGCUUGGCUGAGACGGACGGUGGAAUUCUCGGGUGCCAA	0.463
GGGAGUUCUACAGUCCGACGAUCGCUUUUUUCCUUAUAAGUUUAUAAGUUUGAUUUCAGAUGUUGGAAAUGUGUGCUUUAUAGUGUUUACUAAAGUGACAAGAAAAUAUACCAUUUGACACACUAUAGAUUCCUGGAAUUCUCGGGUGCCAA	0.355
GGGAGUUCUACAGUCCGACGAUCUCCAUCUCAGGAGGCACGGAGGGAAAAGAUGUAUGUAUUGAAGUUUUUUUUUUUUUUUAAAUGUGACUUUUUUUAAAUCAAUGUUCAAACUAAUAAAUAUUUUUUUAUGAUGGAAUUCUCGGGUGCCAA	1.29

Sample 4 — technique: protein binding microarray; form: double-stranded DNA, one strand shown; matrix: in vitro; tested at: not given; reference: not given; direction: higher = stronger binding
Target: Histone acetyltransferase KAT6A, winged helix 1, GST fusion (KAT6A, Homo sapiens, UniProt Q92794, residues 1-85)
Setting: 8-mer, flanks averaged, mean of 2 arrays, mostly near background
Construct (chain): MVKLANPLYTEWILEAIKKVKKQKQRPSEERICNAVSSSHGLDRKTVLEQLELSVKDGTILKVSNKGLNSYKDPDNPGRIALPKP
Sequence	E-score
ACAGTTAC	0.000225
CAGCATAC	-0.094
CATTCCCC	-0.00513
GCTGGGAA	-0.13
ATTATCAA	-0.202
CCCAACAC	-0.104
CCGTCCAG	0.081
CCCTCTTC	-0.102
CAGGTGCA	-0.257
CCCTAGTA	0.012
CACCCAGA	-0.228
CGCCTCGA	0.147
CTGCGCTC	0.189
GCAACAAC	-0.0865
AATCTCAC	-0.0741
AAGGTGCT	-0.117
CTTGAACC	-0.0094
ACACCAAT	-0.171
ATGCCGCC	0.438
CATTAGTC	-0.0828
AACATGTC	-0.0774
CAGCTAAA	-0.14
ACAGATGT	-0.111
GGGCGAAA	-0.0596
GCCGTGTA	0.343

Sample 5 — technique: universal PBM; form: double-stranded DNA, one strand shown; matrix: in vitro; tested at: 600 nM; direction: higher = stronger binding
Target: Sal-like protein 4, full length isoform A (SALL4, Homo sapiens, UniProt Q9UJQ4, residues 1-1053)
Sequence of UniProt Q9UJQ4 (whole entry, looked up): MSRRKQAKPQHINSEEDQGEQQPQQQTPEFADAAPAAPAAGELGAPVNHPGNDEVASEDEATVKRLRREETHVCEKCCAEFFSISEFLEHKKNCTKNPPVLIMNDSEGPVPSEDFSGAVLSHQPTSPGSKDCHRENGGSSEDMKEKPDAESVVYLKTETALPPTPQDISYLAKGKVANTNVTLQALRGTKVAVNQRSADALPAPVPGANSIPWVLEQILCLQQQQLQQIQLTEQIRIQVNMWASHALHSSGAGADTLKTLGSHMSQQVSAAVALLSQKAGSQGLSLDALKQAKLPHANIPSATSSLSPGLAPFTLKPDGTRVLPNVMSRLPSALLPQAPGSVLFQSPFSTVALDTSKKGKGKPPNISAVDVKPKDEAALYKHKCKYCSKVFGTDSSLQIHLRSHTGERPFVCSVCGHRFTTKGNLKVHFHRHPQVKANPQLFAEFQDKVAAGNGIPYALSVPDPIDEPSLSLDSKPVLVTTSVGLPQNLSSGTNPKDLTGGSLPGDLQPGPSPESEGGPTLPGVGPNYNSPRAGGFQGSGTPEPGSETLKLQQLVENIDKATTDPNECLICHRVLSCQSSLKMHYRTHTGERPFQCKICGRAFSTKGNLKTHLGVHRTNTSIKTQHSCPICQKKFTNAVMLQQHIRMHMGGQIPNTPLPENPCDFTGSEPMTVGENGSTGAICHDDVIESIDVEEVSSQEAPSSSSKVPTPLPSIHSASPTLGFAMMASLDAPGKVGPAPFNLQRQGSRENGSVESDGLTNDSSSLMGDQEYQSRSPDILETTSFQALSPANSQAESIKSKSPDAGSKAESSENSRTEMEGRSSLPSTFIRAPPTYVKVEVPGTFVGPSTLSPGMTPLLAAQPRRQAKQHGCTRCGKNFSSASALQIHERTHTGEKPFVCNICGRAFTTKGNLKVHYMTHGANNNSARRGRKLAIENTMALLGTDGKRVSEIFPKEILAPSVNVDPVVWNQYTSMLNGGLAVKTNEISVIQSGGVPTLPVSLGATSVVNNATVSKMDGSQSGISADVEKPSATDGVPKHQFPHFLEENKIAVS
Setting: 8-mer, flanks averaged, mean of replicates
Sequence	E-score
AGCGCGAT	-0.0993
ATAACGCG	0.0284
AGATTTGA	0.186
CTCGTATC	0.0346
CTAAAGTC	0.0611
ATTCACTC	0.125
CGAAGAAG	-0.0402
ACCGGGAC	-0.263
CTCATCGA	-0.0723
CAAGTAGC	-0.127
AGTACAAA	0.144
CTCCGATA	0.0532
AGTATCCG	-0.0606
GCTAGAAA	0.121
AGGATACT	-0.0255
AATGGGCG	-0.187
AACACGAT	0.122
GTTAACTA	0.211
TTACCAAA	0.291
GCAGAGTA	0.0665
CAGACTGC	-0.144
ATCCCCAT	-0.0769
AAGGATTA	0.251
AATCCGCG	-0.208
AGAACAGC	-0.0913

For quick reference, copied from above (sample 1):
Sequence	fitted relative affinity
GACGGTTCCGGTTTCGGGATGTGCTAG	5.31 z-score
TTCATTTTCTGAATGTCCTCGTGCTAG	0.53 z-score
TTAGGACTGGGTTTCGGTGAGTGCTAG	5.13 z-score
TTAGGTTTCGGTCTCGATTAGTGCTAG	15.2 z-score
GATGGTCTCGGACTGGGGACGTGCTAG	1.6 z-score
TTAGGTTTCGGTATCGGTTTGTGCTAG	15.8 z-score
GACGATCTCAGGCTGGAGACGTGCTAG	-0.676 z-score
TTAGGTTTCGACTTTCGGATAGTGCTA	8.62 z-score
TTGGGACTGCTTCTCCTTTAGTGCTAG	-0.209 z-score
GACGGACTGTACTTTCGGGACGTGCTA	0.939 z-score
CTTGCTTTTTAGATCGTCCCGTGCTAG	0.611 z-score
TTCGGTCTCGGTATCGGTTAGTGCTAG	7.77 z-score
